Measurements from different studies.
A part holds a random share of what one study measured.
Sequence of UniProt Q5VT25 (whole entry, looked up): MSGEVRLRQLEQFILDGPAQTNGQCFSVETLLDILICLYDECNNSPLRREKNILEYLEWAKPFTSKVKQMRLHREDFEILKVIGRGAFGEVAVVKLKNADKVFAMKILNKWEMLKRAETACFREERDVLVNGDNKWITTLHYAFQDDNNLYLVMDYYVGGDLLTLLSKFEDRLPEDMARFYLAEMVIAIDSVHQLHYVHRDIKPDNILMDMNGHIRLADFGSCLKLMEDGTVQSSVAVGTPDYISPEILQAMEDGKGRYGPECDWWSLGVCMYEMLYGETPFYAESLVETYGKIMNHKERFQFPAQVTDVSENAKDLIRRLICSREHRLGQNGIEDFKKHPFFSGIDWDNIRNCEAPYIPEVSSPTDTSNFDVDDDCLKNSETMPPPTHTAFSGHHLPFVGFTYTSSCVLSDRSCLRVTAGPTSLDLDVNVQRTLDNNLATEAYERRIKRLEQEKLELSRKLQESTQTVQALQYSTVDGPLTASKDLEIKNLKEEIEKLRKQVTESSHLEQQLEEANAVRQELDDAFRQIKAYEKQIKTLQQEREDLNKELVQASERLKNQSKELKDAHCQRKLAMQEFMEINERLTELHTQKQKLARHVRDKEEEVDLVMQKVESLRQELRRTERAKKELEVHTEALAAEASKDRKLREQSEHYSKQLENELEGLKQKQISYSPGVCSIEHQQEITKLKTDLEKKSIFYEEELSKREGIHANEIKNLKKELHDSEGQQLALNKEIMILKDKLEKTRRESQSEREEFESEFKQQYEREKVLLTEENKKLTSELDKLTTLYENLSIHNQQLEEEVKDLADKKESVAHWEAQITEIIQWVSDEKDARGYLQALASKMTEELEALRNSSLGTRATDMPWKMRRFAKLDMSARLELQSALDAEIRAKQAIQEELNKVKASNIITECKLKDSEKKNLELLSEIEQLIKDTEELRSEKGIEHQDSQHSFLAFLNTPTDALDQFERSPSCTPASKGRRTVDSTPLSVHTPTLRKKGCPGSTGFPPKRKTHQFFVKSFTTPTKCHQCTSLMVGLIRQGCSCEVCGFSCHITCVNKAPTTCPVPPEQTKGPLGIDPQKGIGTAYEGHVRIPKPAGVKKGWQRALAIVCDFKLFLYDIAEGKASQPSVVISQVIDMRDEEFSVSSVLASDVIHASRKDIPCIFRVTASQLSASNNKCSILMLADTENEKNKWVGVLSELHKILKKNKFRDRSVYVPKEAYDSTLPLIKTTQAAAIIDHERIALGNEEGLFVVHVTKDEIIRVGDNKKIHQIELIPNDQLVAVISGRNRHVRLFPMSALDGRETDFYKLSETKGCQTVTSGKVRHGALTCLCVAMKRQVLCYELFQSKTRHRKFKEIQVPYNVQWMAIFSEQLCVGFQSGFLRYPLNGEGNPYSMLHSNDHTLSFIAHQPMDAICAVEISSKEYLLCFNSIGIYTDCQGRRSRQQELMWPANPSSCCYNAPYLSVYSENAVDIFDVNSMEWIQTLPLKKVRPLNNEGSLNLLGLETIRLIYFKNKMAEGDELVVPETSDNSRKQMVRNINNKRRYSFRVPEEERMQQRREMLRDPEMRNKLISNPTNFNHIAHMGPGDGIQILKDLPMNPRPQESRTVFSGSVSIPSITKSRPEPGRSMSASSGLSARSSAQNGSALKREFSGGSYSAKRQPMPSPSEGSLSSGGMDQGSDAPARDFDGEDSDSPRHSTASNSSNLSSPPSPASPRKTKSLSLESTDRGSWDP
Sequence of UniProt Q8TD08 (whole entry, looked up): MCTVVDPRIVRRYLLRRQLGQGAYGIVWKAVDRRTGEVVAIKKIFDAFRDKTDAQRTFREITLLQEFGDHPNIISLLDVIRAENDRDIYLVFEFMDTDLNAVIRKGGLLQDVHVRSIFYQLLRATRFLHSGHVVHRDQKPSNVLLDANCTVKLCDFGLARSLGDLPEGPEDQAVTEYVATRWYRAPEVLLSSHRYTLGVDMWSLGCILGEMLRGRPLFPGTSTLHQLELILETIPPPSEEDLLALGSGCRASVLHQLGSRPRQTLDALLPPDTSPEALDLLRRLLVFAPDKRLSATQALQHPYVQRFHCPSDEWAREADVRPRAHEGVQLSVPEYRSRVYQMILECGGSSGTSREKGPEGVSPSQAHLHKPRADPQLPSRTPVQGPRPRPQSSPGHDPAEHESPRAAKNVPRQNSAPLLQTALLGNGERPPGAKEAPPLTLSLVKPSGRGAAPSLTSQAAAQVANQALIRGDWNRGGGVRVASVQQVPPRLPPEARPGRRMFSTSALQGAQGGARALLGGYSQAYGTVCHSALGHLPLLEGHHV
Sequence of UniProt P19784 (whole entry, looked up): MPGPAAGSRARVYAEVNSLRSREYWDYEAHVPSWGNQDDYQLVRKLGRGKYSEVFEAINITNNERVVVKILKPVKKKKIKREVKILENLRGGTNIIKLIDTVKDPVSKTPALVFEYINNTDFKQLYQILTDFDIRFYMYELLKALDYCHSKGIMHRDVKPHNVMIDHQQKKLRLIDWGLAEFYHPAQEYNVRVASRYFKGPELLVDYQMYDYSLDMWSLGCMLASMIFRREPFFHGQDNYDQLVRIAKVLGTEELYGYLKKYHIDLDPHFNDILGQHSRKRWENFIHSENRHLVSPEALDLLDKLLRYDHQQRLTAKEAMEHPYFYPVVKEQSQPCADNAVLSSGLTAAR
Sequence of UniProt Q9Y2U5 (whole entry, looked up): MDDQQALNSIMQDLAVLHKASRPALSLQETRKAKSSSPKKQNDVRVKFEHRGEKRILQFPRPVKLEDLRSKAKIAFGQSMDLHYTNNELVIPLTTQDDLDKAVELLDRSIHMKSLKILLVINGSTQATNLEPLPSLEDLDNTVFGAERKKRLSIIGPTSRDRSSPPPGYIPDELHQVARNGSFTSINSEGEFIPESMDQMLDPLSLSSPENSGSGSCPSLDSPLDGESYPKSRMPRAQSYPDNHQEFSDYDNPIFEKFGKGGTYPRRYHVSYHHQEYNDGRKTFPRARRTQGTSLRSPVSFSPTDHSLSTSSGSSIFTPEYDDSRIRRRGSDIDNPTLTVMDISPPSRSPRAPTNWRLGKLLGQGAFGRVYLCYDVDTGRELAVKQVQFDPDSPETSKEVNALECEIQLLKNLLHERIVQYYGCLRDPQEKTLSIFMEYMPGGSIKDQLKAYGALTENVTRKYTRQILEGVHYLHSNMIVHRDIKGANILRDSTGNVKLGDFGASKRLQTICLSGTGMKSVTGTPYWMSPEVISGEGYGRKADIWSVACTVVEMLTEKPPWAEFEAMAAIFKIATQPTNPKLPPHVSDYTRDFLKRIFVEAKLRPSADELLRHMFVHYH
Sequence of UniProt Q09013 (whole entry, looked up): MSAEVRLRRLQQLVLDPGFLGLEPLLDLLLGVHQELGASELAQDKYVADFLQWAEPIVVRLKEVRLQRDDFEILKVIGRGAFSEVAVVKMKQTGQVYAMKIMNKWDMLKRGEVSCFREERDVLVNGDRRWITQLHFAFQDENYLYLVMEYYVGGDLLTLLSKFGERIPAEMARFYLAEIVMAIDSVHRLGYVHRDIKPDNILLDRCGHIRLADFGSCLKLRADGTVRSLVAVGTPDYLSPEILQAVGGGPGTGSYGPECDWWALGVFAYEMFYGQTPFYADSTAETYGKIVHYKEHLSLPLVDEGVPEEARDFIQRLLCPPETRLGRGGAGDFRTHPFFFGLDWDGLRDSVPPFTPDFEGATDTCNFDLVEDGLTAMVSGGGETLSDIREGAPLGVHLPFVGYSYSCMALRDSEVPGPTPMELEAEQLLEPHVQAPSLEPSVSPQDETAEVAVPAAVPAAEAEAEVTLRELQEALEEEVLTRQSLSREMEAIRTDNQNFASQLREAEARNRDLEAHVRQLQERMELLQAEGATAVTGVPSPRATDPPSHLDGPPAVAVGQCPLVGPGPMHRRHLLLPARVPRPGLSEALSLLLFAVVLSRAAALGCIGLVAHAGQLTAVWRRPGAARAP
Sequence of UniProt Q2M2I8 (whole entry, looked up): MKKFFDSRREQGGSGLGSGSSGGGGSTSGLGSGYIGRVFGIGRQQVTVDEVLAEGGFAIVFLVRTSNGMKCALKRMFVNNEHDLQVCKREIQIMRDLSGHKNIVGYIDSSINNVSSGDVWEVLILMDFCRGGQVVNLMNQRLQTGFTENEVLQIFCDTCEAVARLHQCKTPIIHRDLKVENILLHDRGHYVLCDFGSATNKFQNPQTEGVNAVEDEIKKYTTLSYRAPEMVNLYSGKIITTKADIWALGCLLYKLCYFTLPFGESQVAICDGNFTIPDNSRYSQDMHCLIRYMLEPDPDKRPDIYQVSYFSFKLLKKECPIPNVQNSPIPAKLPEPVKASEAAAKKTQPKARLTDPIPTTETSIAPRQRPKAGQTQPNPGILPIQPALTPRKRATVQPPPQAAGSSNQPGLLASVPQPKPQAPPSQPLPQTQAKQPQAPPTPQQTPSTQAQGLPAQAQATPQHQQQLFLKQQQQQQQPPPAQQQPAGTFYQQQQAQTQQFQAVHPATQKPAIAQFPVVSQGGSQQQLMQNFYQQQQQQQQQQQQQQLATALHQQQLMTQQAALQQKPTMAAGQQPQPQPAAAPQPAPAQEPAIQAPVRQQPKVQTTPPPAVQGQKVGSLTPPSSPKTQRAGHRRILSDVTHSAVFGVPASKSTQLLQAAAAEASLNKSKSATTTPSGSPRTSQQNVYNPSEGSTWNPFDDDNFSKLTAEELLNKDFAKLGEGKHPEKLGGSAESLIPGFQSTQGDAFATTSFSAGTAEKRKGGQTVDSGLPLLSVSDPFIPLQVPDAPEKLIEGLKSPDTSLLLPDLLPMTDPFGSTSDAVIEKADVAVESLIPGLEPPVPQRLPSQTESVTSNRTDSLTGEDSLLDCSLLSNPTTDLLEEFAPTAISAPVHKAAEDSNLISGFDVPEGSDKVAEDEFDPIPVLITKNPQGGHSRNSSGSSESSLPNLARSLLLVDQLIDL

Block 1
SMILES: Cn1cc(Cl)c2c(Oc3c(F)cc(Nc4cc(Cl)nc(N)n4)cc3F)ccnc21
Tested at: 0.1 µM
Quantity: remaining binding
FLT3 (Homo sapiens, UniProt P36888, D835H); cell-free assay, competition with immobilised ligand: 78%
Tyrosine-protein kinase ABL1, non-phosphorylated (ABL1, Homo sapiens, UniProt P00519, H396P); cell-free assay, competition with immobilised ligand: 84%
CHEK2 (Homo sapiens, UniProt O96017); cell-free assay, competition with immobilised ligand: 94%
CILK1 (Homo sapiens, UniProt Q9UPZ9); binding, competition with immobilised ligand: 100%
FLT1 (Homo sapiens, UniProt P17948); cell-free assay, competition with immobilised ligand: 100%
ALK (Homo sapiens, UniProt Q9UM73, C1156Y); cell-free assay, competition with immobilised ligand: 100%
TRPM6 (Homo sapiens, UniProt Q9BX84); cell-free assay, competition with immobilised ligand: 77%
HUNK (Homo sapiens, UniProt P57058); cell-free assay, competition with immobilised ligand: 100%
RIPK2 (Homo sapiens, UniProt O43353); cell-free assay, competition with immobilised ligand: 83%
RET (Homo sapiens, UniProt P07949, V804L); cell-free assay, competition with immobilised ligand: 91%
CDC42BPA (Homo sapiens, UniProt Q5VT25); cell-free assay, competition with immobilised ligand: 84%
AAK1 (Homo sapiens, UniProt Q2M2I8); binding: 100%
MINK1 (Homo sapiens, UniProt Q8N4C8); cell-free assay, competition with immobilised ligand: 93%
MAPK15 (Homo sapiens, UniProt Q8TD08); cell-free assay, competition with immobilised ligand: 100%
TSSK3 (Homo sapiens, UniProt Q96PN8); cell-free assay, competition with immobilised ligand: 100%
PTK6 (Homo sapiens, UniProt Q13882); cell-free assay, competition with immobilised ligand: 86%

Block 2
Host: mouse
Sample: microsomes or S9
Tested at: 2 µM
Time: 0.5 h
Quantity: remaining compound
COC(=O)c1csc(COc2ccc(F)c(F)c2)n1: 0.146%
CC1=CC[C@@H]2CN(C(=O)c3sc(C(C)C)nc3C)C[C@@H]2C1: 1.34%
COC(=O)C(O)c1c(C)nc2[nH]c3c(c2c1Cl)CCCC3 (centres unmarked): 3.25%
CC(C)(C)OC(=O)Nc1cccc(C(=O)NCc2c(F)cccc2F)n1: 9.89%
Cc1cc(C)c2c(=O)n(CC(=O)NCc3ccc4c(c3)OCO4)c(=O)n(-c3ccccc3)c2n1: 80.7%
Cc1cc(C)c(S(=O)(=O)NCc2nc(N)n(S(=O)(=O)c3c(C)cc(C)cc3C)n2)c(C)c1: 5.69%
COc1ccc2[nH]cc(CCn3c(N)cc(=O)[nH]c3=O)c2c1: 64.7%
O=C(Nc1ccc2nc[nH]c(=O)c2c1)c1cc(-c2ccc(Br)s2)n[nH]1: 29%

Block 3
Sample: hydrocarbon/water
Quantity: logD
CC[C@@H]1C(=O)N(C)[C@@H](CC(C)C)C(=O)N[C@@H](CC(C)C)C(=O)N2CCC[C@@H]2C(=O)N(C)[C@@H](Cc2ccccc2)C(=O)N[C@@H](CC(C)C)C(=O)N1C: 2.73
CC(C)C[C@@H]1NC(=O)[C@H](Cc2ccc(O)cc2)N(C)C(=O)[C@H]2CCCN2C(=O)[C@H](CC(C)C)NC(=O)[C@H](CC(C)C)N(C)C(=O)[C@@H](C)N(C)C1=O: 0.91
CCN1CC(=O)N[C@@H](CC(C)C)C(=O)N(C)[C@@H](C)C(=O)N[C@@H](CC(C)C)C(=O)N(C)Cc2cn(nn2)CC(=O)N[C@@H](CC(C)C)C(=O)N(C)[C@@H](C)C(=O)N[C@@H](CC(C)C)C(=O)N2CCC[C@@H]2C1=O: -0.632

Block 4
Structure (SMILES): COc1ccc(S(=O)(=O)N(CCO)c2ccccc2CN(C)CC=Cc2ccc(Cl)cc2)cc1
Read-out: enzyme activity
Mode: inhibitor
Tested at: 0.5 µM
Baseline: control
Quantity: remaining activity
HIPK3 (Homo sapiens, UniProt Q9H422): 104%
PRKD1 (Homo sapiens, UniProt Q15139): 100%
DMPK (Homo sapiens, UniProt Q09013): 105%
NEK9 (Homo sapiens, UniProt Q8TD19): 91.9%
CSNK2A2 (Homo sapiens, UniProt P19784): 93.7%
BRSK1 (Homo sapiens, UniProt Q8TDC3): 98.4%
ROS1 (Homo sapiens, UniProt P08922): 95.4%
MAPK10 (Homo sapiens, UniProt P53779): 95.5%
MAP3K2 (Homo sapiens, UniProt Q9Y2U5): 95.3%
CDK7 (Homo sapiens, UniProt P50613): 97.6%
Cyclin-dependent kinase 2, with cyclin A (CDK2, Homo sapiens, UniProt P24941): 99.7%
CAMK1D (Homo sapiens, UniProt Q8IU85): 103%
SLK (Homo sapiens, UniProt Q9H2G2): 103%
MAP3K8 (Homo sapiens, UniProt P41279): 96.3%
CAMK1G (Homo sapiens, UniProt Q96NX5): 101%
ROCK2 (Homo sapiens, UniProt O75116): 94.6%
DYRK4 (Homo sapiens, UniProt Q9NR20): 99.6%

For quick reference, copied from above (block 1):
FLT1 (Homo sapiens, UniProt P17948); cell-free assay, competition with immobilised ligand: 100%
ALK (Homo sapiens, UniProt Q9UM73, C1156Y); cell-free assay, competition with immobilised ligand: 100%
TRPM6 (Homo sapiens, UniProt Q9BX84); cell-free assay, competition with immobilised ligand: 77%
HUNK (Homo sapiens, UniProt P57058); cell-free assay, competition with immobilised ligand: 100%
RIPK2 (Homo sapiens, UniProt O43353); cell-free assay, competition with immobilised ligand: 83%
